Experimental data pooled from the literature.
Protocols differ between the studies behind these lines. “And” joins repeats or separate records; there may be more than shown. ± marks the error that the study gave.
BCL6: B-cell lymphoma 6 protein (BCL6, Homo sapiens, UniProt P41182)
qscR ligand-binding domain: qscR, ligand-binding domain (Pseudomonas aeruginosa, UniProt G3XD77)
NR1H3: Oxysterols receptor LXR-alpha (NR1H3, Homo sapiens, UniProt Q13133)
Sequence of UniProt Q13133 (whole entry, looked up): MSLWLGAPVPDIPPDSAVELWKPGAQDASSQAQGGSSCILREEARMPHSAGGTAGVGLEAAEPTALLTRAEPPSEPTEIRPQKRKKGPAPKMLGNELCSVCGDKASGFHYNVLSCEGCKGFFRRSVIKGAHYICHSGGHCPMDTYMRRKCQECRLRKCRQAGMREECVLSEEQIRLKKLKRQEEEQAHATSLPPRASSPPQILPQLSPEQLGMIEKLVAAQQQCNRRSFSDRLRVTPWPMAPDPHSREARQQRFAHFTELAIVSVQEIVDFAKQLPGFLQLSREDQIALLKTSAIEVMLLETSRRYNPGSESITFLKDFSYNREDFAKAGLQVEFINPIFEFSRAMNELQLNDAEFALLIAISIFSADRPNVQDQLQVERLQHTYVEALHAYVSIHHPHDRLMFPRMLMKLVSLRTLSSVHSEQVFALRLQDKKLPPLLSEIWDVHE
Sequence of UniProt Q99572 (whole entry, unmodified, looked up): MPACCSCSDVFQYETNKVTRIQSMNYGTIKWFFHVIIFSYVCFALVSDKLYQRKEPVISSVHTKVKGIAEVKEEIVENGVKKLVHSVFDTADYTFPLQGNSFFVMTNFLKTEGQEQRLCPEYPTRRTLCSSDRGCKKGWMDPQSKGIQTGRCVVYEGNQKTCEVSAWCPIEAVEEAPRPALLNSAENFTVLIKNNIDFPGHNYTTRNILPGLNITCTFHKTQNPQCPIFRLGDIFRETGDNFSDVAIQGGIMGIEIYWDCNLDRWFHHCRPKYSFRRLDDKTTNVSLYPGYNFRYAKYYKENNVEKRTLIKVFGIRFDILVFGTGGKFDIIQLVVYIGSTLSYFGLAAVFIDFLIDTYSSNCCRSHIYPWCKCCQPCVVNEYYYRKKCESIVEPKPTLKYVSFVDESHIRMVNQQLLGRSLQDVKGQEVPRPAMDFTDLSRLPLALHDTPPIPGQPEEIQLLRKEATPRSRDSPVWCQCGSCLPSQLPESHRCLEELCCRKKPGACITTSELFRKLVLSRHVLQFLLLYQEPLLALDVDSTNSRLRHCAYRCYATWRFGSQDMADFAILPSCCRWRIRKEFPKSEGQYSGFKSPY
Sequence of UniProt P0A4Q0 (whole entry, looked up): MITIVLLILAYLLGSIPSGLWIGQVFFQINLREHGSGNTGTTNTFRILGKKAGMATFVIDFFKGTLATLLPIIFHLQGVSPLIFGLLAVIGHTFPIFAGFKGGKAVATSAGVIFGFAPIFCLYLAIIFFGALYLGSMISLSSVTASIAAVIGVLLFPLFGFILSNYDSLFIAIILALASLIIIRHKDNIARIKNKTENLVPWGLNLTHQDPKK
Sequence of UniProt P08588 (whole entry, looked up): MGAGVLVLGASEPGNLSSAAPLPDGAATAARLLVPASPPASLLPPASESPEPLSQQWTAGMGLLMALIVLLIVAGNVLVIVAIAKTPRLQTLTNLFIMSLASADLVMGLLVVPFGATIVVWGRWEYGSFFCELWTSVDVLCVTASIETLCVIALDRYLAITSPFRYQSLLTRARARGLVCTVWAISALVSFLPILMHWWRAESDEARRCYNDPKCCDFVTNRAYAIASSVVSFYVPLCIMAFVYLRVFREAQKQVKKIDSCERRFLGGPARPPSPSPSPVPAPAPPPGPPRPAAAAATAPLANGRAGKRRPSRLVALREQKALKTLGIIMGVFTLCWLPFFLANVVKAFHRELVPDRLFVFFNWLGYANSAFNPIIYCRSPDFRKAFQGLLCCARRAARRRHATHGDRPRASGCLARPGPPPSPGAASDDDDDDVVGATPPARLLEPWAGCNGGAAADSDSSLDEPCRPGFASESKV
Sequence of UniProt P28335 (whole entry, looked up): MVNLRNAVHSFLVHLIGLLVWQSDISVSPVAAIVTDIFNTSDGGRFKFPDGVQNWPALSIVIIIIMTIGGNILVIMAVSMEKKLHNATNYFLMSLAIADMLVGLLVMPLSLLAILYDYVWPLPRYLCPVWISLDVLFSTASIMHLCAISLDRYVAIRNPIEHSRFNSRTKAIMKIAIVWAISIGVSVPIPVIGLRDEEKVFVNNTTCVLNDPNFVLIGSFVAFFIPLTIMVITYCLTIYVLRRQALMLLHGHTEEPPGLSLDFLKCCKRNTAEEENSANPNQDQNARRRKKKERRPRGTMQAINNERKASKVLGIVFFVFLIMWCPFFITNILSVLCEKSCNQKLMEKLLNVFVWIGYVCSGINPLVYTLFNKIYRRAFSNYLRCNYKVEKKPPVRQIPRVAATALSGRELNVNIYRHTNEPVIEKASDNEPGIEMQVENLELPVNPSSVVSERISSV
Sequence of UniProt Q12791 (whole entry, looked up): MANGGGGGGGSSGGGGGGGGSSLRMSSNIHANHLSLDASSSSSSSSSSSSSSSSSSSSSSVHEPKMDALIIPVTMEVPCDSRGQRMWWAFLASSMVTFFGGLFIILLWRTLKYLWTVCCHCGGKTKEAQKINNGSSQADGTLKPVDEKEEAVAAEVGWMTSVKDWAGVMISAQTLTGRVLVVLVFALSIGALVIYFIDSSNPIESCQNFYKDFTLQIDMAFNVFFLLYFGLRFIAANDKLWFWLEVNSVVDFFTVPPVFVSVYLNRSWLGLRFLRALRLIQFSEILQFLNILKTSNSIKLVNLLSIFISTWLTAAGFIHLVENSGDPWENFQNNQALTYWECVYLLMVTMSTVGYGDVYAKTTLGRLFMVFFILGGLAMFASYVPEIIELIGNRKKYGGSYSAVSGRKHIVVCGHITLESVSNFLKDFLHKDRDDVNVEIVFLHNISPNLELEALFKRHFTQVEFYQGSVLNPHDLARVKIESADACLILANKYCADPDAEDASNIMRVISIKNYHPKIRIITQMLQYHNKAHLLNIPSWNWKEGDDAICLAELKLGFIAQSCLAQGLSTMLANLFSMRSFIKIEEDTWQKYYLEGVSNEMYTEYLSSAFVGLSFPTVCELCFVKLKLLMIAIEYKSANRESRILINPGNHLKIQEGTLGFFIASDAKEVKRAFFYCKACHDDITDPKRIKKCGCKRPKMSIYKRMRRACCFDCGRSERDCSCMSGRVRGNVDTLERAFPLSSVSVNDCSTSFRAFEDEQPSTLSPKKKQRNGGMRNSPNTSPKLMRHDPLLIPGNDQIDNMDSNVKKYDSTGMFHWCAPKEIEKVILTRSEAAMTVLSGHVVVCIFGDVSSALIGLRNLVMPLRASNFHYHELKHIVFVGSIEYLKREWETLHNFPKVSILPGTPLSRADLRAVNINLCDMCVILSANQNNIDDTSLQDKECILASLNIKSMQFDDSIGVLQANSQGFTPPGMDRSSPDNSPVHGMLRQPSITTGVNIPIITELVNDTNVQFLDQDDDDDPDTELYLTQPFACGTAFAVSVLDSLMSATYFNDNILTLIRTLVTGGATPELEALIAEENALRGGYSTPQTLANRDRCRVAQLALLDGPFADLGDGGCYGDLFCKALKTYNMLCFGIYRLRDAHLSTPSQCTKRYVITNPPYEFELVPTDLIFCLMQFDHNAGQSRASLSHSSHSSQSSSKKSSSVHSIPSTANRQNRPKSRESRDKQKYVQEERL
Sequence of UniProt P0AFI2 (whole entry, looked up): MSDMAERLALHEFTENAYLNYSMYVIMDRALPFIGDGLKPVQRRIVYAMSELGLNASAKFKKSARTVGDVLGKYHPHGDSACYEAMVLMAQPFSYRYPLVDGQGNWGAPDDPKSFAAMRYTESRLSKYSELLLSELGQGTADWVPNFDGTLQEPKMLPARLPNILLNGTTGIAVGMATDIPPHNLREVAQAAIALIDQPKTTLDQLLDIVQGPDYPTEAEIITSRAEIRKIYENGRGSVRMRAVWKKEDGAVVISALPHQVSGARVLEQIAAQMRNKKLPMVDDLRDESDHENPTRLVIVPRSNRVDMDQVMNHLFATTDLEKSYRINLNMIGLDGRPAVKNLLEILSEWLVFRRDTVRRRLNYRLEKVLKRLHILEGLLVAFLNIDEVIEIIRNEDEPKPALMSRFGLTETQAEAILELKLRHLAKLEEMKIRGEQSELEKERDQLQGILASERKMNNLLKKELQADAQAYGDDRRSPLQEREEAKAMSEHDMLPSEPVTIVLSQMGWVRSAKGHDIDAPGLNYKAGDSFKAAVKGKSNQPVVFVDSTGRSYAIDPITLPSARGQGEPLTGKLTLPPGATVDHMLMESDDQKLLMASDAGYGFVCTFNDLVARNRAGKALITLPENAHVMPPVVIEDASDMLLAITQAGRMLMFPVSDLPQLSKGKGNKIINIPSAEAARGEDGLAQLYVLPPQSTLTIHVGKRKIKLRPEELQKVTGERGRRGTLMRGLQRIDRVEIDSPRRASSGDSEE
Sequence of UniProt O07884 (whole entry, looked up): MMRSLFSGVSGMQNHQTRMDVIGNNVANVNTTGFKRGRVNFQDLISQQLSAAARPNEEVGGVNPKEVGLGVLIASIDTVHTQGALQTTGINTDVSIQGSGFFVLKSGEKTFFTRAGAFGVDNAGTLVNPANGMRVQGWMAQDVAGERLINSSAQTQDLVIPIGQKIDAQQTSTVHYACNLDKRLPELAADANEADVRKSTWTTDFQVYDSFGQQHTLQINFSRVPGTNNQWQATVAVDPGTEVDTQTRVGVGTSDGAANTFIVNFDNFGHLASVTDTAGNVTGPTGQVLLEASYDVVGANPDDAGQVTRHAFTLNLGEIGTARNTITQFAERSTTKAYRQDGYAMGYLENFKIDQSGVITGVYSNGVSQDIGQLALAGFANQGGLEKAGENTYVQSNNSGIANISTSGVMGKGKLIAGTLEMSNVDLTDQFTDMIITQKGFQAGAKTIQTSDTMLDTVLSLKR
Sequence of UniProt P32322 (whole entry, looked up): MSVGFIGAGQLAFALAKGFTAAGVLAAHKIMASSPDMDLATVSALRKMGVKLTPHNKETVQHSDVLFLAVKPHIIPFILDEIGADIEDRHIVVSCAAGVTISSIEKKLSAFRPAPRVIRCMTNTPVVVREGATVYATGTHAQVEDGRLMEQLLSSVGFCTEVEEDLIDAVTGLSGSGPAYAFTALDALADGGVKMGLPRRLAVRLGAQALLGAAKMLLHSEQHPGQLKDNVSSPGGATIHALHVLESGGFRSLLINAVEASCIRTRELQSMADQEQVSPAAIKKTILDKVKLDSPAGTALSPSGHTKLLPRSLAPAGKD

CCCCCCCCCCCCCCCC(=O)NS(=O)(=O)Oc1ccc(OC)cc1
IC50 (Glycerol-3-phosphate acyltransferase (plsY, Streptococcus pneumoniae, UniProt P0A4Q0); inhibitor): 60000 nM

CO[C@H]1C[C@@H]2\C=C(C)/C=C/C=C\C(=O)N[C@H](c3ccccc3)C/C=C/CC[C@H](O)CC(=O)C2=C1O
IC50 (Replicase polyprotein 1ab, 3C-like proteinase (Feline coronavirus, UniProt Q98VG9); protease activity, inhibitor; with: 6 µM fluorogenic substrate): 24600 ± 8970 nM

Cn1c(=O)cnc2ccc(F)c(CCNC[C@H]3CN(c4cnc5c(n4)NC(=O)CO5)C(=O)O3)c21
IC50 (DNA topoisomerase 4 subunit A, with ParE subunit (Escherichia coli K-12, UniProt P0AFI2); decatenation activity, inhibitor): 20 nM

Cc1cc2c(C(C)C)c(O)c(O)c(C=O)c2c(O)c1-c1c(C)cc2c(C(C)C)c(O)c(O)c(C=O)c2c1O
IC50 (CACNA1H (Homo sapiens, UniProt O95180); calcium current, blocker, whole-cell patch clamp; human channel-expressing cells): 6500 ± 600 nM

Cn1c(=O)n(CCC(C)(C)O)c2cc(Nc3nc(N4CCC(F)(F)CC4)ncc3Cl)ccc21
IC50 (BCL6): 270 nM and 340 nM

Cc1ccc(S(=O)(=O)Nc2ccc(-c3n[nH]c(=S)o3)cc2)cc1
IC50 (P2X purinoceptor 7 (P2RX7, Homo sapiens, UniProt Q99572); calcium mobilization, antagonist; MCF7 transfected with P2RX7; with: 100 µM BzATP): 1090 nM

COCCn1c2nc(=O)n(-c3ccccc3)c(=O)c-2nc2ccccc21
IC50 (Genome polyprotein, NS5 methyltransferase domain (GP1, West Nile virus, UniProt Q9Q6P4); IC50-TLC): 1600 nM

CCCCCCCCCC(=O)NC1CCCC1
IC50 (qscR ligand-binding domain; ligand binding, FRET displacement; ligand-binding domain 5 nM, with: fluorescent ligand 2 µM): 8450 nM

Nc1ncnc2c1c(Oc1cc(C(=O)O)ccn1)nn2C1CC1
IC50 (CDPK1 (Toxoplasma gondii, UniProt Q9BJF5); enzyme activity, inhibitor): > 20000 nM

Cn1c(=O)n(CCC(C)(C)O)c2cc(Nc3nc(N4CCCCC4)ncc3Cl)ccc21
IC50 (BCL6): 1080 nM and 940 nM

C[C@H]1CN(c2n[nH]c3nc(N[C@H]4CC[C@H](NS(=O)(=O)CCC(F)(F)F)CC4)ncc23)CCO1
IC50 (KSR1 (Homo sapiens, UniProt Q8IVT5); biochemical): ≥ 20000 nM

CC[C@H](O)Cn1c(=O)n(C)c2ccc(Nc3ccnc(Cl)c3C#N)cc21
IC50 (BCL6): 5110 nM and 4340 nM and 4270 nM

C=CC(=O)N[C@H]1C=C(C)c2c(-c3cnc4ccccc4c3)c3c(N)ncnc3n2C1
IC50 (EGFR (Homo sapiens, UniProt P00533); EGFR phosphorylation, HTRF; H2073^WT cells; 2 h, with: EGF): 559 nM

Oc1c(Cl)cc(Cl)c(Cl)c1Cc1c(O)c(Cl)cc(Cl)c1Cl
IC50 (Flagellar hook protein FlgE (flgE, Treponema pallidum, UniProt O07884)): 9370 nM

O=C(O)CC(F)(F)C(=O)N1N=C(c2c(-c3ccc(Cl)cc3)c3ccccc3[nH]c2=O)C[C@H]1c1ccc(Cl)cc1
IC50 (Grin1/Grin2b/Glutamate receptor ionotropic, NMDA 2D (Rattus norvegicus, UniProt P35439+Q00960+Q62645); ion current, inhibitor, two-electrode voltage clamp; Xenopus oocytes; with: glycine and glutamate): 93 nM

COc1cc(C(=O)N2CC[C@@H](O)[C@@H](N)C2)cc2nc(-c3cc4ccccc4n3CC3CC3)n(C)c12
IC50 (HTR2C (Homo sapiens, UniProt P28335); intracellular calcium, antagonist, luminescence): > 39800 nM

CCOC(=O)CC(SP(=O)(OC)OC)C(=O)OCC (stereo not drawn)
IC50 (carboxylesterase (mouse); PON1+/+ mouse liver homogenate; 30 min, 23 °C): 309 ± 29.2 nM

O=CN1CCC[C@H]1C(=O)O
IC50 (Pyrroline-5-carboxylate reductase 1, mitochondrial (Homo sapiens, UniProt P32322); enzyme activity): 490000 ± 50000 nM

CCOP(=O)(OCC)Oc1nc(Cl)c(Cl)cc1Cl
IC50 (carboxylesterase (mouse); PON1+/+ mouse liver homogenate; 30 min, 23 °C): 4.3 ± 0.8 nM

CO/N=C1\C[C@]2(C[C@@H]3C[C@@H](C/C=C(\C)C[C@@H](C)/C=C/C=C4\CO[C@@H]5[C@H](O)C(C)=C[C@@H](C(=O)O3)[C@]45O)O2)O[C@H](/C(C)=C/C(C)C)[C@H]1C
IC50 (NR1H3; receptor activity, inhibitor; cells): 5310 ± 3450 nM

N#Cc1c(NCc2ccccc2)ccnc1Cl
IC50 (BCL6): 97000 nM and 127000 nM and 110000 nM and 165000 nM and 105000 nM

O=[N+]([O-])c1cc(-n2nccn2)ccc1NCCCCCCN[C@H]1C[C@](O)(CO)[C@@H](O)[C@H](O)[C@H]1O
IC50 (Mogs (Mus musculus, UniProt Q80UM7); enzyme activity, inhibitor; with: trisaccharide substrate): 50 nM

CCCCOc1ccc(C(=O)CCN2CCCCC2)cc1
IC50 (DRD4 (Homo sapiens, UniProt P21917); radioligand binding, inhibitor; CHO-K1; with: [3H]spiperone): 4110 nM

CC(C)c1cc2c(c(O)c1O)[C@@]13CCCC(C)(C)[C@@H]1[C@H](OC3=O)[C@H]2O
IC50 (CA2 (Homo sapiens, UniProt P00918); enzyme activity, inhibitor): 4.18 ± 0.08 nM

C[C@@H]1CN(c2ncc(Cl)c(Nc3ccc4c(c3)n(CCC(C)(C)O)c(=O)n4C)n2)C[C@H](C)N1C
IC50 (BCL6): 160 nM and 230 nM

COc1ncccc1-c1cnn2ccc(N3CCN(C(=O)OC(C)C)CC3)nc12
IC50 (ADRB1 (Homo sapiens, UniProt P08588); liability screen): > 30000 nM

Cn1c(=O)n(CCC(C)(C)O)c2cc(Nc3nc(N4CCCC(C(F)(F)F)C4)ncc3Cl)ccc21 (stereo not drawn)
IC50 (BCL6): 260 nM and 630 nM

O=C1C=CC(=O)c2c(O)cccc21
IC50 (Malonyl-CoA-ACP transacylase (Helicobacter pylori, UniProt Q56S05); inhibitor, dehydrogenase-coupled; with: alpha-ketoglutarate): 20000 ± 1000 nM

C[C@@H]1CN(Cc2ccc(F)cc2)CCN1C(=O)COc1ccc(Cl)cc1NC(N)=O
IC50 (RORC (Homo sapiens, UniProt P51449); reporter gene, inhibitor, GAL4 dual-luciferase reporter; HEK293T; 24 h): 4970 ± 2190 nM

CCCCCCCCCC(=O)CC(=O)N[C@H]1CCOC1=O
IC50 (qscR ligand-binding domain; ligand binding, FRET displacement; ligand-binding domain 5 nM, with: fluorescent ligand 2 µM): 94.4 nM

C[C@@H]1CN(c2ncc(Cl)c(Nc3ccc4c(c3)n(CCC(C)(C)O)c(=O)n4C)n2)C[C@H](C)O1
IC50 (BCL6): 170 nM

COc1cc(Nc2ncc(F)c(Nc3ccc4c(n3)NC(=O)C(C)(C)O4)n2)cc(OC)c1OC
IC50 (PTPN2 (Homo sapiens, UniProt P17706); TCPTP): > 10000 nM

CCCCCCCCCCCC(=O)N[C@H]1CCOC1=O
IC50 (qscR ligand-binding domain; ligand binding, FRET displacement; ligand-binding domain 5 nM, with: fluorescent ligand 2 µM): 39.9 nM

CO[C@H]1C[C@H](O[C@H]2[C@H](C)O[C@@H](O[C@@H]3/C(C)=C/C[C@@H]4C[C@@H](C[C@]5(C=C[C@H](C)[C@@H](C6CCCCC6)O5)O4)OC(=O)[C@@H]4C=C(C)[C@@H](O)[C@H]5OC/C(=C\C=C\[C@@H]3C)[C@]54O)C[C@@H]2OC)O[C@@H](C)[C@@H]1O
IC50 (NR1H3; receptor activity, inhibitor; cells): 2180 ± 1680 nM

Cn1ccnc1-c1ncc(Cl)c(Nc2ccc3c(c2)n(CCC(C)(C)O)c(=O)n3C)n1
IC50 (BCL6): 360 nM and 620 nM

CN(C)C(=O)C(CCN1CCC(O)(c2ccc(Cl)cc2)CC1)(c1ccccc1)c1ccccc1
IC50 (Calcium-activated potassium channel subunit alpha-1, with LRRC26 γ1 subunit (KCNMA1, Homo sapiens, UniProt Q12791); BK channel conductance, inhibitor, inside-out patch clamp; BKα/γ1, Vm 60 mV, nominally Ca2+-free): 2500 ± 530 nM

Some of these lines once more:
O=[N+]([O-])c1cc(-n2nccn2)ccc1NCCCCCCN[C@H]1C[C@](O)(CO)[C@@H](O)[C@H](O)[C@H]1O
IC50 (Mogs (Mus musculus, UniProt Q80UM7); enzyme activity, inhibitor; with: trisaccharide substrate): 50 nM

CCCCOc1ccc(C(=O)CCN2CCCCC2)cc1
IC50 (DRD4 (Homo sapiens, UniProt P21917); radioligand binding, inhibitor; CHO-K1; with: [3H]spiperone): 4110 nM

CC(C)c1cc2c(c(O)c1O)[C@@]13CCCC(C)(C)[C@@H]1[C@H](OC3=O)[C@H]2O
IC50 (CA2 (Homo sapiens, UniProt P00918); enzyme activity, inhibitor): 4.18 ± 0.08 nM
